# Measurements from different studies.
# Compare with care: the assays were run in different laboratories.
# Method: steady-state kinetics
# B1: bshA (Bacillus subtilis, UniProt P42982); chain MRKLKIGITCYPSVGGSGIIATELGKQLAEKGHEIHFITSSIPFRLNTYHPNIHFHEVEVNQYAVFKYPPYDLTLASKIAEVAERENLDIIHAHYALPHAVCAYLAKQMLKRNIGIVTTLHGTDITVLGYDPSLKDLIRFAIESSDRVTAVSSALAAETYDLIKPEKKIETIYNFIDERVYLKKNTAAIKEKHGILPDEKVVIHVSNFRKVKRVQDVIRVFRNIAGKTKAKLLLVGDGPEKSTACELIRKYGLEDQVLMLGNQDRVEDLYSISDLKLLLSEKESFGLVLLEAMACGVPCIGTNIGGIPEVIKNNVSGFLVDVGDVTAATARAMSILEDEQLSNRFTKAAIEMLENEFSSKKIVSQYEQIYADLAEPE
# B2: TaNK (Thermoplasma acidophilum, UniProt Q9HJT3); chain MRFLAYFGHLNIDVLISVDSIPREGSVNVKDLRPRFGGTAGNFAIVAQKFRIPFDLYSAVGMKTHREYLAMIESMGINTGHVEKFEDESGPICYIATDGKKQVSFMHQGAMEKWKPQLADEYEYVHFSTGPNYLDMAKSIRSKIIFDPSQEIHKYSKDELKKFHEISYMSIFNDHEYRVFREMTGLSSPKVTTIVTNGERGSSLFMDGKKYDFPAIPSSGDTVGAGDSFRAGLYLALYNRRSIEKGMIYGTIIAHHVIDDGIENFSLNMEDLERETENYRRMFTKRS
# B3: enzyme (Brachypodium distachyon, UniProt I1HY48); chain MGSIASEERTVTGWAARDADGHLSPYTYTLRKTGPEDVLVKVLYCGICHTDIHQAKNHLGASKYPMVPGHEVVGEVVEVGGEVSKYSAGDVVGVGVIVGCCRECRPCKASVEQYCNKRIWSYNDVYTDGRPTQGGFSSAMVVDQKFVVRIPAGLAPEQAAPLLCAGVTVYSPLKHFGLMSPGLRGGILGLGGVGHMGVKVAKSMGHHVTVISSSGKKRAEAMDDLGADAYLVSSDADQMAAAADSLDYVIDTVPVKHPLEPYLSLLKMDGKLVLMGVIGEPLSFVSPMVMLGRKSITGSFIGSMEETEEVLKFCVEKGLTSQIEVVKMDYLNEALERLERNDVRYRFVVDVAGSKIEDAA
# B4: ltaE H83F (Escherichia coli, UniProt P75823); chain MIDLRSDTVTRPSRAMLEAMMAAPVGDDVYGDDPTVNALQDYAAELSGKEAAIFLPTGTQANLVALLSHCERGEEYIVGQAAFNYLFEAGGAAVLGSIQPQPIDAAADGTLPLDKVAMKIKPDDIHFARTKLLSLENTHNGKVLPREYLKEAWEFTRERNLALHVDGARIFNAVVAYGCELKEITQYCDSFTICLSKGLGTPVGSLLVGNRDYIKRAIRWRKMTGGGMRQSGILAAAGIYALKNNVARLQEDHDNAAWMAEQLREAGADVMRQDTNMLFVRVGEENAAALGEYMKARNVLINASPIVRLVTHLDVSREQLAEVAAHWRAFLAR
# B5: HCT R356D (Coleus scutellarioides, UniProt E8ZAP2); chain MKIHVRDSTLVRPSAATPAVSLWNSNVDLVVPNFHTPSVYFYRPSGADNFFDTAVMKAALGRALVSFYPMAGRLKRDEDGRVEIDCNAEGVLFVEAESDGTVDDYGDFAPSLELRRLIPAVDYSQGISAYPLLVLQVTFFKCGGVSLGVGMQHHAADGFSGLHFINTWSDMARGLDITLPPFIDRTLLSARDPPQPQFKHVEYQPPPAMKTYEPAETVVSIFKLTKDQLTTLKAKSKEDGNTTTYSSYEMLSGHVWRCTCLARGLPEEQETKLYIATDGRSRLQPQLPPGYFGNVIFTATPLAVAGDLGSKPVWYAASKIHDALARMDNDYLRSALDFLELQPDLKALVRGAHTFDCPNLGITSWVRLPIHDADFGWGRPIFMGPGGIAYEGLSFVLPSPTNDGSLSVAISLQAEHMKLFEKLLYQI
# B6: PduO F112H (Limosilactobacillus reuteri, UniProt Q50EJ2); chain MKIYTKNGDKGQTRIIGKQILYKNDPRVAAYGEVDELNSWVGYTKSLINSHTQVLSNELEEIQQLLFDCGHDLATPADDERHSFKFKQEQPTVWLEEKIDNYTQVVPAVKKHILPGGTQLASALHVARTITRRAERQIVQLMREEQINQDVLIFINRLSDYFFAAARYANYLEQQPDMLYRNSKDVFR
# Sequence of UniProt P38999 (whole entry, looked up): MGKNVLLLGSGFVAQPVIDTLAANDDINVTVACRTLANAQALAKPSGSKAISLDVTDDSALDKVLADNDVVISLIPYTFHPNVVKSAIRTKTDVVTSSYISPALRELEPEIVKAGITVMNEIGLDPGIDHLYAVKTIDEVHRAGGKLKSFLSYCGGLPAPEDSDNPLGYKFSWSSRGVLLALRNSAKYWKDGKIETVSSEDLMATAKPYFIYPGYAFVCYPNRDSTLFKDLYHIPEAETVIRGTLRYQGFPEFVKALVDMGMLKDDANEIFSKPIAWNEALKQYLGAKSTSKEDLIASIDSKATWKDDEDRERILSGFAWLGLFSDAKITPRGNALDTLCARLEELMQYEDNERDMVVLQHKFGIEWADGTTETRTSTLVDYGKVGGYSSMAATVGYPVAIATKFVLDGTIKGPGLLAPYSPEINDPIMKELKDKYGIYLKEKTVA
# Sequence of UniProt P15586 (whole entry, looked up): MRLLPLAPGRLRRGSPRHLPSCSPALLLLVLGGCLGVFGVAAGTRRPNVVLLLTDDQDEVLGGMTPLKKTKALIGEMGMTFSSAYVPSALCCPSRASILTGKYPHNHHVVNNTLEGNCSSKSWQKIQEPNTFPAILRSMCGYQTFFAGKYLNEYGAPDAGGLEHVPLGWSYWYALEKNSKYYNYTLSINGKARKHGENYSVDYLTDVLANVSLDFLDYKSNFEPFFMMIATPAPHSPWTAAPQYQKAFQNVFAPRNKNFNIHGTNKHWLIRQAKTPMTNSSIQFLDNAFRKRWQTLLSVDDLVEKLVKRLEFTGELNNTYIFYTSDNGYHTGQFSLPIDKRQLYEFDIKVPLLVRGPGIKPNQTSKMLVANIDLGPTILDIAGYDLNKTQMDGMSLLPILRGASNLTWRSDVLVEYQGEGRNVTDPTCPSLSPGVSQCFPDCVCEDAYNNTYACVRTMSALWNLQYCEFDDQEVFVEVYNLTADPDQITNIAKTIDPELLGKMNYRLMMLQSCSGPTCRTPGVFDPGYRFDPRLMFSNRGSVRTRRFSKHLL
# Sequence of UniProt P49058 (whole entry, looked up): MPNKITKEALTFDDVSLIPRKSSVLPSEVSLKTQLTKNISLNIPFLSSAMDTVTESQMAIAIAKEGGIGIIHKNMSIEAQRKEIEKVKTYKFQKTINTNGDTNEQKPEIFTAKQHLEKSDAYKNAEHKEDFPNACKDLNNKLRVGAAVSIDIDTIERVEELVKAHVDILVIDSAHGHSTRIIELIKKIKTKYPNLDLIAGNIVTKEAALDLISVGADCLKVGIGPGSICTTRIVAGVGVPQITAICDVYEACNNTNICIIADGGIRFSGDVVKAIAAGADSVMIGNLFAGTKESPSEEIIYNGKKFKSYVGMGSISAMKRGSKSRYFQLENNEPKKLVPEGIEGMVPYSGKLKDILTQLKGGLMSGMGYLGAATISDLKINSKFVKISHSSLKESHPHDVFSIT
# Sequence of UniProt Q3SY77 (whole entry, looked up): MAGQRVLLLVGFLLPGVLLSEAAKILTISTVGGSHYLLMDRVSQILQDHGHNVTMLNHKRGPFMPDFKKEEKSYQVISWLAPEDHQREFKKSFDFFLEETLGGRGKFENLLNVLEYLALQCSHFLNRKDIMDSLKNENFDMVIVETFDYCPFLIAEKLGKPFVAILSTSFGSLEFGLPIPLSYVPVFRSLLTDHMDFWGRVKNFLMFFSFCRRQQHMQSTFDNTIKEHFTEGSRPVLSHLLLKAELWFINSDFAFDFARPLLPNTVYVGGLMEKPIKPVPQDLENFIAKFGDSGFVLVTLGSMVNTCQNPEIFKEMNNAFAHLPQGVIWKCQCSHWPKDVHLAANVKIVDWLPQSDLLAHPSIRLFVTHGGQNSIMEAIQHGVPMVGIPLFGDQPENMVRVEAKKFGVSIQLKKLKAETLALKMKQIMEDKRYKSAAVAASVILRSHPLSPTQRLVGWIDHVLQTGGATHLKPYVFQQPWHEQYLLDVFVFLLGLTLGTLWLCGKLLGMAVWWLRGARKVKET
Molecule,substrate,pH,temperature,notes,with,Km [µM]
"enzyme (Thermobifida fusca, UniProt Q47RK4)",CC(C)(COP(=O)(O)OP(=O)(O)OC[C@H]1O[C@@H](n2cnc3c(N)ncnc32)[C@H](O)[C@@H]1OP(=O)(O)O)[C@@H](O)C(=O)NCCC(=O)NCCSC(=O)CC(=O)O,pH 7.4,37 °C,,,3320
B1 (bshA),O=C(O)C[C@H](O)C(=O)O,pH 7.5,37 °C,apparent,UDP-GlcNAc 10 mM,410
B2 (TaNK),Nc1nc2c(ncn2[C@@H]2O[C@H](COP(=O)(O)OP(=O)(O)OP(=O)(O)O)[C@@H](O)[C@H]2O)c(=O)[nH]1,pH 8,22 °C,apparent,"inosine, Mg2+",185
B3 (enzyme),NC(=O)C1=CN([C@@H]2O[C@H](COP(=O)(O)OP(=O)(O)OC[C@H]3O[C@@H](n4cnc5c(N)ncnc54)[C@H](OP(=O)(O)O)[C@@H]3O)[C@@H](O)[C@H]2O)C=CC1,pH 6.25,23 °C,cofactor varied,,7.2
"enzyme (Borreliella burgdorferi, UniProt P49058)",O=P(O)(O)OC[C@H]1O[C@@H](n2cnc3c(O)ncnc32)C[C@@H]1O,pH 8,25 °C,,,66
"enzyme (Scutellaria baicalensis, UniProt A0A146AUQ2)",O=C(O)/C=C/c1ccccc1,pH 7.8,,apparent,,172
"GNS (Homo sapiens, UniProt P15586)",CC(=O)N[C@H]1[C@@H](Oc2ccc3c(C)cc(=O)oc3c2)O[C@H](COS(=O)(=O)O)[C@@H](O)[C@@H]1O,pH 5.6,37 °C,,lead acetate,4000
"protein (Sinorhizobium meliloti, UniProt Q92WA4)",O=C(O)[C@H]1O[C@H](OP(=O)(O)OP(=O)(O)OC[C@H]2O[C@@H](n3ccc(=O)[nH]c3=O)[C@H](O)[C@@H]2O)[C@H](O)[C@@H](O)[C@@H]1O,pH 7.6,37 °C,,NAD+ 1 mM,95
B4 (ltaE H83F),C[C@H](O)[C@H](N)C(=O)O,pH 7,30 °C,"potassium phosphate 20 mM, retro-aldol cleavage",PLP 500 µM,7000
"UGT3A2 (Homo sapiens, UniProt Q3SY77)",O=c1ccn([C@@H]2O[C@H](COP(=O)(O)OP(=O)(O)O[C@H]3OC[C@@H](O)[C@H](O)[C@H]3O)[C@@H](O)[C@H]2O)c(=O)[nH]1,pH 7.4,37 °C,not purified,"1-OH-pyrene 16 µM, MgCl2 10 mM, alamethicin",728
"Saccharopine reductase (Saccharomyces cerevisiae, UniProt P38999)",N[C@@H](CCC(=O)O)C(=O)O,pH 7,25 °C,,"NADPH, AASA",28000
B5 (HCT R356D),NCCc1ccc(O)c(O)c1,pH 8,,pseudo-first-order,p-coumaroyl CoA,49400
B6 (PduO F112H),Nc1ncnc2c1ncn2[C@@H]1O[C@H](COP(=O)(O)OP(=O)(O)OP(=O)(O)O)[C@@H](O)[C@H]1O,pH 8,37 °C,anoxic,cob(I)alamin,2.6

# Repeated from above:
Molecule,substrate,pH,temperature,notes,with,Km [µM]
B1 (bshA),O=C(O)C[C@H](O)C(=O)O,pH 7.5,37 °C,apparent,UDP-GlcNAc 10 mM,410
